Assay results from different studies.
A part holds a random share of what one study measured.

Sample 1
Target: Phosphate system positive regulatory protein PHO4, full length, GST-tagged (PHO4, Saccharomyces cerevisiae, UniProt P07270, residues 1-312)
Method: competition protein-binding microarray
Molecule type: double-stranded DNA, one strand shown
Medium: in vitro
Tested at: 2 µM
Setting: whole 60-bp probe, lowest competitor level
Added: Cbf1 competitor, 0.05 µM
Direction: higher = stronger binding
Residues (chain): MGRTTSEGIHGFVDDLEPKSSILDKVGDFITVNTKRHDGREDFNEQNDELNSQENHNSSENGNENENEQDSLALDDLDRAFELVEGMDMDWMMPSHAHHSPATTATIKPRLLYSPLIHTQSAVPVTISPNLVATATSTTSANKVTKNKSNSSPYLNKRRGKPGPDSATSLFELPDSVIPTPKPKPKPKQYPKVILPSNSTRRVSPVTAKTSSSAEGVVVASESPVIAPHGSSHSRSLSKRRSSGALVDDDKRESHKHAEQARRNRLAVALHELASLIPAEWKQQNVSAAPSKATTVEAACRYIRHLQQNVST
Sequence	fluorescence intensity [a.u.]
AAATTACTAAGTTGGACGGTGGGTGACGCCGTATGAGTCTTGATTCGCTTGACGCTGCTG	4220
AAAGCGGTAATTTGACTGGTGGGTGCAGATATCTATGTCTTGATTCGCTTGACGCTGCTG	4270
TGCGCAACAACTTGTCACGCAACTTTATGTCTAGAAGTCTTGATTCGCTTGACGCTGCTG	5180

Sample 2
Target: Histone acetyltransferase KAT6A, winged helix 2, GST fusion (KAT6A, Homo sapiens, UniProt Q92794, residues 85-181)
Method: protein binding microarray
Molecule type: double-stranded DNA, one strand shown
Medium: in vitro
Tested at: not given
Setting: 8-mer, flanks averaged, mean of 2 arrays, mostly near background
Relative to: not given
Direction: higher = stronger binding
Residues (chain): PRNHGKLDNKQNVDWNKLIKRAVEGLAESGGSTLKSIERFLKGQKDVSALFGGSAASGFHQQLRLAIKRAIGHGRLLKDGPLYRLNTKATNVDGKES
Sequence	E-score
CCAAGCGC	0.178
GGTCAAAA	0.0288
ATGTTCTA	-0.137
AGCAGATA	-0.0622
CGGCATGC	0.237
ATGAGATG	0.0179
CCAGCAAG	0.0261
AAACCCCC	-0.194
ACGCCTGC	0.00177
CTAATTAG	-0.116
AGGTATTA	-0.0165

Sample 3
Target: Sox-I, HMG box (Salpingoeca helianthica)
Method: Spec-seq
Molecule type: double-stranded DNA, one strand shown
Medium: in vitro
Tested at: not given
Setting: whole probe, mean of replicates
Relative to: not given
Direction: lower = stronger binding
Shared flanks, not repeated: GAGTCGTCTCGTCAGCAC … CCGTAGAGCACTCAGGTC
Construct (chain): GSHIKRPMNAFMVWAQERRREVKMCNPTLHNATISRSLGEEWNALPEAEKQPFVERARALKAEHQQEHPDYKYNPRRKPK
Sequence	relative binding energy [ln ratio]
CAAAGTT	0.594
GGTGGTT	0.962
AGTAGTT	-0.232
CATCTGC	1.12
AGCGGTT	0.491
GGGTGTT	0.634
CATCTAA	0.372
CATAGAA	0.164

Sample 4
Target: Interferon regulatory factor 3, full length, phosphomimetic (IRF3, Homo sapiens, UniProt Q14653, residues 1-427, S386D/S396D/S398D/S402D/T404D/S405D)
Sequence of UniProt Q14653 (whole entry, unmodified, looked up): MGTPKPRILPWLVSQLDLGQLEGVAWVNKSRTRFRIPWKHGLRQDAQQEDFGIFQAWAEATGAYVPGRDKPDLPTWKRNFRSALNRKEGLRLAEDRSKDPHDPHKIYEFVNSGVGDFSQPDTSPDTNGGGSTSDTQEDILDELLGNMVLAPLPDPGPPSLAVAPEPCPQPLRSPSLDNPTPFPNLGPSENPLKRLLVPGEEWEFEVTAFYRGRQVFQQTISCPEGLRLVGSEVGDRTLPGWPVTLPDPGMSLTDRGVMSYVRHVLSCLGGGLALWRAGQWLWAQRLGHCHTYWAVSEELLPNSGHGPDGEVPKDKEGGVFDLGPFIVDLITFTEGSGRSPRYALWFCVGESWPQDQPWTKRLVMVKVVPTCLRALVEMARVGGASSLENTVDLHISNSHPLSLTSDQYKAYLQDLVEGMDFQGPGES
Method: protein-binding microarray
Molecule type: double-stranded DNA, one strand shown
Medium: in vitro
Tested at: 2540 nM top
Setting: 60-bp whole probe
Added: salmon DNA 0.4 mg/ml
Relative to: random background probes
Direction: higher = stronger binding
Shared flanks, not repeated: GCCTAGCAC … GTGCTAGGTCTTGATTCGCTTGACGCTGCTG
Sequence	fitted relative affinity [z-score]
GACGATATCAGTATCTAGAC	1.03
TTAGGTCTCCTACTGCGTTA	0.89
TCACATTTTTTTTTTCAACT	0.941
GTATGGATGTGTTTTAAATA	0.174
TTAGGGATCGGTTTCGGTTA	6.25

Further values, each from its own experiment
Substance	target	test	test system	setting	how to read	measurement	result
PhoQ, residues 284 288 289 292 302 303 SLKLQV	PhoP, residues 12 14 15 18 19 TQAIL (Escherichia coli, UniProt P23836)	Sort-seq, item: YFP reporter	E. coli	PhoQ-PhoP variant library, added: 10 µM Mg2+	relative to: high Mg2+ state, higher = stronger signaling	fold induction	8.26

Repeated from above (sample 1):
Sequence	fluorescence intensity [a.u.]
AAAGCGGTAATTTGACTGGTGGGTGCAGATATCTATGTCTTGATTCGCTTGACGCTGCTG	4270
AAATTACTAAGTTGGACGGTGGGTGACGCCGTATGAGTCTTGATTCGCTTGACGCTGCTG	4220
